# Results from different studies.
# Organism: Streptococcus pneumoniae
Structure (SMILES),assay,system,setting,MIC
CC[C@H](C)[C@H](N)C1=N[C@H](C(=O)N[C@@H](CC(C)C)C(=O)N[C@H](CCC(=O)O)C(=O)N[C@H](C(=O)N[C@H]2CCCCNC(=O)[C@H](CC(N)=O)NC(=O)[C@@H](CC(=O)O)NC(=O)[C@H](Cc3c[nH]cn3)NC(=O)[C@@H](Cc3ccc(-c4ccccc4)cc3)NC(=O)[C@H]([C@@H](C)CC)NC(=O)[C@@H](CCCN)NC2=O)[C@@H](C)CC)CS1,,"153, TSB with lysed horse blood","24 h, 37 °C, with: ZnSO4",2 µg/mL
Cc1cccc(-c2nc(Nc3ccncn3)c3sccc3n2)n1,"microbial growth, broth dilution",1629,,> 64 µM
CC(C)[C@H](NC(=O)[C@H](CCCCN)NC(=O)[C@H](CCCNC(=N)N)NC(=O)CNC(=O)[C@H](C)NC(=O)[C@H](CC(N)=O)NC(=O)[C@H](CCCNC(=N)N)NC(=O)[C@@H](NC(=O)[C@H](CCCCN)NC(=O)[C@H](CC(=O)O)NC(=O)[C@@H](NC(=O)[C@@H](NC(=O)[C@H](CCCNC(=N)N)NC(=O)[C@H](CCCNC(=N)N)NC(=O)[C@H](Cc1c[nH]c2ccccc12)NC(=O)[C@H](Cc1c[nH]c2ccccc12)NC(=O)CN)[C@@H](C)O)C(C)C)C(C)C)C(=O)O,,clinical strain,"18 h, 37 °C",> 256 µg/mL
CC[C@H](C)[C@H](N)C1=N[C@H](C(=O)N[C@@H](CC(C)C)C(=O)N[C@H](CCC(=O)O)C(=O)N[C@@H](Cc2ccccc2)C(=O)N[C@H]2CCCCNC(=O)[C@H](CC(N)=O)NC(=O)[C@@H](CC(=O)O)NC(=O)[C@H](Cc3c[nH]cn3)NC(=O)[C@@H](Cc3ccccc3)NC(=O)[C@H]([C@@H](C)CC)NC(=O)[C@@H](CCCN)NC2=O)CS1,,"153, TSB with lysed horse blood","24 h, 37 °C, with: ZnSO4",64 µg/mL
c1cc2c(s1)CCOC21CCN(Cc2ccc3c(c2)OCCO3)CC1,"microbial growth, broth dilution",1629,,64 µM
c1ccc(CCNC2CCCc3c2[nH]c2ccc(C4CCCCC4)cc32)cc1 (stereo not drawn),broth microdilution,"T4, supplemented C+Y medium",,1 µg/mL
CN[C@@H]1[C@H](O)[C@H](NC)[C@H]2O[C@]3(O)[C@H](O[C@@H]2[C@H]1O)O[C@H](C)C[C@@]3(O)CNCc1ccc(OC(F)(F)F)cc1,,R6,,3.1 µg/mL
CC[C@H](C)[C@H](N)C1=N[C@H](C(=O)N[C@@H](Cc2ccccc2)C(=O)N[C@H](CCC(=O)O)C(=O)N[C@H](C(=O)N[C@H]2CCCCNC(=O)[C@H](CC(N)=O)NC(=O)[C@@H](CC(=O)O)NC(=O)[C@H](Cc3c[nH]cn3)NC(=O)[C@@H](Cc3ccccc3)NC(=O)[C@H]([C@@H](C)CC)NC(=O)[C@@H](CCCN)NC2=O)[C@@H](C)CC)CS1,,"153, TSB with lysed horse blood","24 h, 37 °C, with: ZnSO4",2 µg/mL
CC(C)[C@H](NC(=O)[C@H](CCCCN)NC(=O)[C@H](CCCNC(=N)N)NC(=O)[C@@H](NC(=O)[C@H](C)NC(=O)[C@H](CC(N)=O)NC(=O)[C@H](CCCNC(=N)N)NC(=O)[C@@H](NC(=O)[C@H](CCCCN)NC(=O)[C@H](CCCCN)NC(=O)[C@@H](NC(=O)[C@@H](NC(=O)[C@H](CCCNC(=N)N)NC(=O)[C@H](CCCNC(=N)N)NC(=O)[C@H](Cc1c[nH]c2ccccc12)NC(=O)[C@H](Cc1c[nH]c2ccccc12)NC(=O)CN)[C@@H](C)O)C(C)C)C(C)C)C(C)C)C(=O)O,,clinical strain,"18 h, 37 °C",128 µg/mL
COc1ccc(CCNc2cc(-c3ccccc3)nc3ncnn23)cc1,"microbial growth, broth dilution",1629,,> 64 µM
CN[C@@H]1[C@H](O)[C@H](NC)[C@H]2O[C@]3(O)[C@H](O[C@@H]2[C@H]1O)O[C@H](C)C[C@@]3(O)CNCc1ccccc1,,R6,,6.3 to 12.5 µg/mL
Cc1ccc2nc(C(F)(F)F)c(C(=O)NCc3cccc(Cl)c3)n2c1,"microbial growth, broth dilution",1629,,64 µM
CN[C@@H]1[C@H](O)[C@H](NC)[C@H]2O[C@]3(O)[C@H](O[C@@H]2[C@H]1O)O[C@H](C)C[C@@]3(O)CNCc1ccc(F)cc1,,D39X drug sensitive,,2 µg/mL
CC[C@H](C)[C@H](N)C1=N[C@H](C(=O)N[C@@H](CC(C)C)C(=O)N[C@H](CCC(=O)O)C(=O)N[C@H](C(=O)N[C@H]2CCCCNC(=O)[C@H](CC(N)=O)NC(=O)[C@@H](CC(=O)O)NC(=O)[C@H](Cc3c[nH]cn3)NC(=O)[C@@H](Cc3ccc4ccccc4c3)NC(=O)[C@H]([C@@H](C)CC)NC(=O)[C@@H](CCCN)NC2=O)[C@@H](C)CC)CS1,,"153, TSB with lysed horse blood","24 h, 37 °C, with: ZnSO4",2 µg/mL
COc1ccc2nc(C)cc(OCC(=O)Nc3ccccc3OC)c2c1,"microbial growth, broth dilution",1629,,64 µM

# Excerpt of the above:
Structure (SMILES),assay,system,setting,MIC
CC[C@H](C)[C@H](N)C1=N[C@H](C(=O)N[C@@H](Cc2ccccc2)C(=O)N[C@H](CCC(=O)O)C(=O)N[C@H](C(=O)N[C@H]2CCCCNC(=O)[C@H](CC(N)=O)NC(=O)[C@@H](CC(=O)O)NC(=O)[C@H](Cc3c[nH]cn3)NC(=O)[C@@H](Cc3ccccc3)NC(=O)[C@H]([C@@H](C)CC)NC(=O)[C@@H](CCCN)NC2=O)[C@@H](C)CC)CS1,,"153, TSB with lysed horse blood","24 h, 37 °C, with: ZnSO4",2 µg/mL
